Published values from different studies.
Values joined by “and” are separate records of one study, mostly repeats; a detail may differ. ± marks the error that the study gave.

Compound	test	test system	conditions	how to read	measurement	result
CCOC(=O)[C@H](CSC)NC(=O)c1ccc(C2CC2)c(Cc2ccc(F)cc2)n1	–	aqueous buffer with DMSO	–	–	kinetic solubility	< 0.1 µg/mL
NCCCC[C@@H]1NC(=O)[C@@H](Cc2c[nH]c3ccccc23)NC(=O)[C@H](c2ccccc2)NC(=O)[C@@H]2C[C@@H](OC(=O)NCCN)CN2C(=O)[C@H](Cc2ccccc2)NC(=O)[C@H](Cc2ccc(OCc3ccccc3)cc2)NC1=O	–	healthy volunteers, male	1950 µg twice daily, 4.0 h, post hoc	–	placebo-corrected QTcF change	12.2 ms
COc1cc2c(Oc3ccc4[nH]c(C)cc4c3F)ccnc2cc1OCC1(N)CC1	–	paediatric recurrent refractory sarcoma	8 mg	–	grade 3 abdominal pain	0%
COc1cccc(Oc2ccccc2NC(=O)CNC(=O)c2cccc3ccccc23)c1	–	esterase-deficient SCID mice, male, blood	oral, 100 mg/kg/day, 14 days, toxicity study	relative to: white cells	lymphocytes	24% and 18.8% and 27.2%
COc1ncccc1-c1cnn2ccc(N3CCN(C(=O)OC(C)C)CC3)nc12	–	mouse, open field test, brain	oral, 10 mg/kg, 60 min	–	drug concentration	14 µM
CCc1ccc(CC/C=C/c2ccc3c(c2)C(=O)CC3)cc1	–	Sprague-Dawley rat, male	oral, 120 mg/kg/day, 14 days	–	GGT serum activity	1.33 U/L
O=c1ccc2ccc3occc3c2o1	–	rat plasma	200 ng/mL, 2 weeks, -70 °C, post-preparative stability	–	accuracy	104%
O=C1OC[C@H]2OC(O)[C@H](O)[C@@H](O)[C@@H]2OC(=O)c2cc(O)c(O)c(O)c2-c2c(O)c(O)c3oc(=O)c4c(c(O)c(O)c5oc(=O)c2c3c54)-c2c1cc(O)c(O)c2O (mixture of isomers)	–	BALB/c mice	1000 mg/kg/day, 28 days, subacute toxicity study	–	liver weight	1.32 g
O=C(O)CCCOc1ccc(F)cc1-c1cc(-c2ccccc2C(F)(F)F)n(-c2ccccc2)n1	measured: Ca	Crl:CD(SD) rats, female, blood	iv, 25 µg/kg, 14 days	–	blood chemistry	9.7 ± 0.3 mg/dL
C[C@]1(CO)Cc2ncn(-c3ccc(C#N)c(Cl)c3)c2C(=O)O1	–	human	3 mg multiple doses, fasted	–	subjects with any TEAE	55.6%
COc1ccc(-c2c(-c3ccc(C#N)c(F)c3)nc(N3CCC(N)CC3)n(C)c2=O)cc1F	measured: Thrombocytopenia	relapsed/refractory marginal zone lymphoma patients	oral, 60 mg, grade 3 to 4, dose expansion	–	treatment-related adverse event incidence	0%
C=CC(=O)N1CC[C@H](n2nc(C#Cc3cc(OC)cc(OC)c3)c3c(N)ncnc32)C1	–	patients with advanced solid tumours	oral, dose not given, Nausea, any grade, QD, with: lanthanum carbonate hydrate	–	adverse drug reaction incidence	12.5%
CN1CCN(c2cccc3c2CCN(C(=O)/C=C/c2c(-n4cnnn4)ccc(Cl)c2F)[C@@H]3C(=O)Nc2ccc(C(=O)O)cc2)C(=O)C1	–	healthy human subjects	intravenous infusion, 1 mg/h, 5 days	–	deaths	0%
CN1CCN(S(=O)(=O)c2cc([N+](=O)[O-])ccc2N(CCOS(C)(=O)=O)CCOS(C)(=O)=O)CC1	–	NSG mice, plasma	intraperitoneal, 5 mg/kg, 2 h	–	concentration	not detected
O=C(c1ccc(F)c(F)c1Nc1ccc(I)cc1F)N1CC(O)([C@@H]2CCCCN2)C1	–	human patients	oral, 1 mg/kg, age ≥18 years	–	treatment-related AE causing dose modification	100%
CO[C@H]1C[C@@H]2CC[C@@H](C)[C@@](O)(O2)C(=O)C(=O)N2CCCC[C@H]2C(=O)O[C@H]([C@H](C)C[C@@H]2CC[C@@H](OC(=O)NCCOCCOCCOCCOCCOCCOCCOCCOCCC(=O)N3CCc4cc(Cn5nc(-c6ccc7oc(N)nc7c6)c6c(N)ncnc65)ccc4C3)[C@H](OC)C2)C[C@@H](O)[C@H](C)/C=C(\C)[C@@H](O)[C@@H](OC)C(=O)[C@H](C)C[C@H](C)/C=C/C=C/C=C/1C	phase 1 dose escalation, measured: diarrhoea	advanced solid tumour patients	intravenous, 10 mg weekly, any grade	–	TRAE incidence	37.5%
C[C@@H]1NC(=O)[C@H](CCCCNC(=O)CO/N=C/C(=O)NCCCC[C@@H]2NC(=O)[C@@H](Cc3ccccc3)NC(=O)[C@H](CC(=O)O)NC(=O)CNC(=O)[C@H](CCCNC(=N)N)NC2=O)NC(=O)CNC(=O)[C@@H]2CCCN2C(=O)[C@H](CCCCNC(=O)CO/N=C/C(=O)NCCCC[C@@H]2NC(=O)[C@@H](Cc3ccccc3)NC(=O)[C@H](CC(=O)O)NC(=O)CNC(=O)[C@H](CCCNC(=N)N)NC2=O)NC(=O)[C@H](CCCCNC(=O)CN2CCCNCCNCCCNCC2)NC(=O)[C@H](CCCCNC(=O)CO/N=C/C(=O)NCCCC[C@@H]2NC(=O)[C@@H](Cc3ccccc3)NC(=O)[C@H](CC(=O)O)NC(=O)CNC(=O)[C@H](CCCNC(=N)N)NC2=O)NC(=O)CNC(=O)[C@@H]2CCCN2C(=O)[C@H](CCCCNC(=O)CO/N=C/C(=O)NCCCC[C@@H]2NC(=O)[C@@H](Cc3ccccc3)NC(=O)[C@H](CC(=O)O)NC(=O)CNC(=O)[C@H](CCCNC(=N)N)NC2=O)NC1=O [copper-64 labelled]	–	normal mice, spleen	intravenous, 0.74 MBq, 24 h post-injection	–	tissue uptake	2.94 ± 0.31 %ID/g
NC(=O)[C@H]1CCN(c2ncnc(N)c2F)C[C@@H]1N1CCC[C@@H](Nc2cc(Cl)cc(C(F)(F)F)c2)C1=O	–	B-cell malignancy patients	oral, 41 mg twice daily, dose	–	grade ≥3 hyponatraemia	10%
C=CCNc1c(O)cc2c(O)c1C[C@@H](C)C[C@H](OC)[C@H](O)[C@@H](C)/C=C(\C)[C@H](OC(N)=O)[C@@H](OC)/C=C\C=C(/C)C(=O)N2	measured: Vomiting	unresectable or metastatic GIST/STS	intravenous, dose not given, all doses	–	patients with TEAE	37%
CC(C)CC(=O)OC[C@H]1O[C@@](C#N)(c2ccc3c(N)ncnn23)[C@H](O)[C@@H]1O	–	mouse whole blood	5 µM, 60 min	–	remaining compound	0%
CC1(C)[C@H](C=C(Cl)Cl)[C@H]1C(=O)OCc1cccc(Oc2ccccc2)c1	measured: CYP2C19	human, age 6 months, recombinant human CYP2C19	0.1 µM	–	enzyme contribution to clearance	0.23%
N[C@@H]1c2ccccc2OC12CCN(c1cnc3c(N4CCCc5ncccc54)n[nH]c3n1)CC2	–	advanced solid tumour patients	oral, 20 mg once daily	–	serious TEAE grade ≥3	0%
O=C(O)CCC(CP(=O)(O)O)C(=O)O (centres unmarked)	–	rat plasma	-80 °C, repeated freeze-thaw cycles	–	stability	stable
CC(=O)c1c(C)c2cnc(Nc3ccc(C4CCN(CCS(C)(=O)=O)CC4)cn3)nc2n(C2CCCC2)c1=O	–	human patients, plasma	oral, 100 mg twice daily, day 21 multiple doses	–	Cmax	317 ng/mL
CN1CC[C@@H](c2c(O)cc(O)c3c(=O)cc(-c4ccc(C(F)(F)F)cc4Cl)oc23)[C@@H]1CO	measured: Pneumonia	relapsed AML	oral, 100 mg, grade 3-4, intermittent dosing	–	patients with adverse event	33.3%
CC(C)(c1ccccc1)c1cc(-n2nc3ccccc3n2)c(O)c(C(C)(C)c2ccccc2)c1	exposure assessment	human, age 2-3 years	spray sunscreen	–	mean daily dermal uptake	12.9 ng/kg body weight/day
